Measurements pooled from the literature.
Parts stem from different laboratories: compare values within a part only. Positions count from the first letter of the parent shown.

Sample 1 — method: protein-binding microarray; form: double-stranded DNA, one strand shown; matrix: in vitro; tested at: 0.8 µM; setting: whole 60-bp probe, no competitor; reading: higher = stronger binding; shared flanks, not repeated: … GTCTTGATTCGCTTGACGCTGCTG
Target: Centromere-binding protein 1, full length, N-terminal tag (CBF1, Saccharomyces cerevisiae, UniProt P17106, residues 1-351)
Chain of UniProt P17106 (whole entry, looked up): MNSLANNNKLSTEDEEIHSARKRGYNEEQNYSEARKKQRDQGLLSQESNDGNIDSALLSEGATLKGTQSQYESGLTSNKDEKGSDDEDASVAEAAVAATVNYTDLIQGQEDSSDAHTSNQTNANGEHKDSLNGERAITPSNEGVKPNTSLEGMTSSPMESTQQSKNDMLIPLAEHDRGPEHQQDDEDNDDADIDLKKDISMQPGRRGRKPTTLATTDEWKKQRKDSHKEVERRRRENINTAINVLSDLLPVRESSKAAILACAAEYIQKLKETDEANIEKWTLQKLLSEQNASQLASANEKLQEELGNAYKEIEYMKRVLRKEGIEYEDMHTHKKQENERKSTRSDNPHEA
Oligonucleotide	fluorescence intensity [a.u.]
CTACATATGATTCACGTGAAAATTTTTATATTTTTC	3850
CTATTGGAGCAGAGGCACCTGATAATGGAAGCGTTC	687
GAATTATTTGGCCCCCACGAGAACGCGGGGAAATAG	550
GAATTTTGCAATCGTGATTACAGAAAAAAAACATAG	755
TGTACGAAGCTATTCCACATGAATATAGTAGTTAGG	531
GAAACGAACTTGAATAGGGTGACATATAAATATTAG	543
GAACAGTCATACAAGCACGAGGAAAAAGAGGACTAG	659
CTAATAGGGTCATGTCACGTAATAAGCAACGTGTTC	820
GAAATACCACAAAAGCAGGTGACAGCAATTGTGTAG	1490
CTATCACACCCAACTCAGGTGTAAATCGTCCTATTC	507
TGTACGAAGCTATGTTTCGTGACTATAGTAGTTAGG	536
CTACATTAGAACGCTGATCAGCTGTGTATAGTTTTC	667
GAATCGTTAAAATACGTGATGGTGTTATTTTTATAG	546
CTATGTCATTGTTTTTGCACCACCTTGTTACATTTC	576
CTAATATCAATATGACATGTGATCTCACTCCGCTTC	3210
GAAGGGGCAAGACACCATCTGATGGGTTGAAAATAG	556
CTATTTTGTACATATCGTGTCATACTGCGACTGTTC	606
GAAGTGGCGAATGATCACGATAGAAACTGCCCTTAG	623
GAAAGGAAGAATAGTCACACTTGCAGTGTAATTTAG	519
CTAGACAAAGAGTATGACGTGAAAATGATGCGCTTC	583
CCTAACTACTATATATTCATGATATAGCTTCGTACA	517
GAATGCCTTGCCTCTCCCGTGCTTTTTTGTTTTTAG	579
CTACTACACGTTGGTCTGATGTCTCAGGAGTTATTC	540
CTAGTTACAAGTTCAATGGTGGTGCAAGGATTGTTC	520
TGTACGAAGCTATGTGACGTTGATATAGTAGTTAGG	546

Sample 2 — method: RNA Bind-n-Seq; form: RNA; matrix: in vitro; tested at: 200 nM; setting: whole 134-nt RNA, ends assumed; with: 150 mM KCl; relative to: input library; reading: higher = stronger binding
Target: Ras GTPase-activating protein-binding protein 1, full length (G3BP1, Homo sapiens, UniProt Q13283)
Chain of UniProt Q13283 (whole entry, looked up): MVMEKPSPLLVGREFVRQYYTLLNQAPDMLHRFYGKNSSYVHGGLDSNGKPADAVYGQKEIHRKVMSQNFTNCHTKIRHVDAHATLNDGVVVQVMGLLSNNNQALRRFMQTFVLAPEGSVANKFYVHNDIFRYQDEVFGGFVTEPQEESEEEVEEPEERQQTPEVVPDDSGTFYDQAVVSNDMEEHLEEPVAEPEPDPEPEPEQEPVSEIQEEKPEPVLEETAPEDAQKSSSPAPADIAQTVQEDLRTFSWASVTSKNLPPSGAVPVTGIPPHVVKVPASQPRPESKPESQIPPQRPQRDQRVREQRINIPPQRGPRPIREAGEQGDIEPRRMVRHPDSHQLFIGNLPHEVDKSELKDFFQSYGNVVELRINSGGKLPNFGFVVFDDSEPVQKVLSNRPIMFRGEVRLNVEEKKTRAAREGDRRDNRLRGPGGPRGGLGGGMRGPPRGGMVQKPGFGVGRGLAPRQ
Shared flanks, not repeated: GGGAGUUCUACAGUCCGACGAUC … UGGAAUUCUCGGGUGUCAAGG
Oligonucleotide	log2 enrichment
ACAGGAAGUAAAAACAAAUGGAAAUGCUUCGGAUAGUGGCAGGGGUGGGGGUUGCUAAGGAAAGGGUGGGAUGGGAGUGGGUAAAGAGUU	0.364
AGUCCUGUGCUACACAUCGUAUGUACCGAAUCGGCCCCCGGCCCCCGGGGCCCCCGGGAAAGUAUUAUGUUACGCCGUUCGGAUCUGCAC	-0.953
AAGUCCUGUGCUACACAUCGUAUGUACCGAAUCGGUUUGGUUUUUGGUUUUUUUGGAAAGUAUUAUGUUACGCCGUUCGGAUCUGCACUU	-1.33
GCAGGAAGUAAAAACAAAUGGAAAUGCUUCGGAUAGUGGCAGGGGUGGGGGGUGCUAAGGAAAGGGUGGGAUGGGAGUGGGUAAAGAGUU	1.2
CAAGUCCUGUGCUACACAUCGUAUGUACCGAAUCGGGAGGGUUUGGGAAAAAGGGAAAGUAUUAUGUUACGCCGUUCGGAUCUGCACUUC	0.574
CUCAAGUCCUGUGCUACACAUCGUAUGUACCGAAUCGGUUUUUGGUGGUUUGGAAAGUAUUAUGUUACGCCGUUCGGAUCUGCACUUCCA	-0.571
GUCCUGUGCUACACAUCGUAUGUACCGAAUCAAACCCCCAAACCCAAAUUUUUUUAAAAAAGUAUUAUGUUACGCCGUUCGGAUCUGCAC	-0.121
UCUGAGGUCACCAAGCCUCCUCCUUGCUUGGAGAACUCCUCGCCUCCCUCCAGGAUUCCGGAGCCUGAAUCCCCAGCGAAGCCAAACGUC	0.142
UCAAGUCCUGUGCUACACAUCGUAUGUACCGAAUCGGCCCCGGCCCCGGCCCCGGAAAGUAUUAUGUUACGCCGUUCGGAUCUGCACUUC	-0.876
AAGUCCUGUGCUACACAUCGUAUGUACCGAAUCGGAAAAGGGGAAAAGGAAAAGGGGAAAGUAUUAUGUUACGCCGUUCGGAUCUGCACU	-0.633
GCAGGAAGUAAAAACAAAUGGAAAUGCUUCGGAUAGUGGCAGGGGUUGGGGUUGCUAAGGAAAGGGUGGGAUGGGAGUGGGUAAAGAGUU	0.767
AGUCCUGUGCUACACAUCGUAUGUACCGAAUCGGUUUUUGGUUUUUGGUUUUUGGGGAAAGUAUUAUGUUACGCCGUUCGGAUCUGCACU	-1.16
CUCAAGUCCUGUGCUACACAUCGUAUGUACCGAAUCGGCCGGGCCGGGCCGGGGAAAGUAUUAUGUUACGCCGUUCGGAUCUGCACUUCC	-0.201
UAACUUUAGAGGAGGAUCUGAUGGAUAUGGCAGUGGACGUGGAUUUGGGGAUGGCUAUAAUGGGGAUGGAGGAGGACCUGGAGGUGGCAA	0.763

Sample 3 — method: RNA Bind-n-Seq; form: RNA; matrix: in vitro; tested at: not given; relative to: input RNA pool; reading: higher = stronger binding
Target: RING finger protein unkempt homolog, zinc fingers 1-6, GST-SBP tag (UNK, Homo sapiens, UniProt Q9C0B0, residues 30-357)
Chain of UniProt Q9C0B0 (30-357, looked up): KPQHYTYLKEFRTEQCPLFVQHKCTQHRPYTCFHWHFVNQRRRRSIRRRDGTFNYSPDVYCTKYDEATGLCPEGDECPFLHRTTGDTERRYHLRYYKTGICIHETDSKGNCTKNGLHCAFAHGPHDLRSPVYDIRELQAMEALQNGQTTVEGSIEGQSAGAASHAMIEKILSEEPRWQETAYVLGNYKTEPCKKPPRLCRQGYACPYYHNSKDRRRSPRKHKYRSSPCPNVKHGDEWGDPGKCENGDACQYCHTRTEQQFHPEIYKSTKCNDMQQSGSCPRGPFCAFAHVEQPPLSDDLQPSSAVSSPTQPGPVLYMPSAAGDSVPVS
Setting: RNA with constant flanks, human-mouse chimeric sites, ends assumed
Shared flanks, not repeated: GGGAGUUCUACAGUCCGACGAUC … CAACAGAGGAUUGAGCAUCA
Oligonucleotide	bound/input enrichment
ACCUCCCAGGCCUGGGACACCCCACCCCCGCUUUUUGGAAAGUUUUUGGCGUUUCUUUUCCUUCCCCAUACAAAGUGAUUACAGUUUCCCCCGCAAGGGUCUAUCGAAGGGCUUGACGGA	0.629 ratio
UCUUUAAAAAAAAAAUUACCUUUUCUGCAUAUUAUAGCCCUCCCAUAGGUCCAGGUUCAAGCUCAAAGAGCAAAGGCUUUGCACGGAGCUCAAACAUCUGAUGAAGAAAGAUUUCUGAGA	3.02 ratio
AUAGAUGAAAUUGAUGUGGACCAGGAAGGAAUUGCUGAAAUGAUCCUGGAUGAAAAUGCUAUAGCUCAGGUCCCACGCCCUGGCACAUCUUUGAAGCUCCCUGGCACUAAUCAGACAGGA	0.337 ratio
GACUUGGGACCGUCCUGGGCUAGUACAAAUAGCGGCAGUGGAGGCUCGAGAGGAAAGUUUGUUAGUGGAGGCAGUGGUAGAGGCCGUAUGUACGCUCCCUUUACUCGAUAGAUGUGUUCU	0.439 ratio
AUAAAGGCUAUGUUGAGUGGCCCAGGUCAGUUUGCUGAGAACGAAACCAACGAGGUCAAUUUUAGAGAGAUCCCCUCACAUGUGCUAUCAAAAGUGUGCAUGUAUUUUACCUACAAGGUC	0.158 ratio
CAGUCCCCGUGUCCCAGGGGACAAUGUGAACAUGGACAACUCAAAGCGGACCCUCUAUUGUAGUUCUUGAUUCUCGAAAUGUGCUAUUAUUGUUUGUCUUUUUUUUUUUUUUUUUAAAGA	2.43 ratio
CAGUCCCGCGACAGCGUUGCAGGACGAUGUGAACAAAAACUCAAAGCGGACCCUCUAUUGUAGUUCUUGAUUCUCGAAAUGUGCUAUUAUUGUUUGUAAAAAAGGAAUUUUUUUUAAAGA	0.244 ratio

Sample 4 — method: protein binding microarray; form: double-stranded DNA, one strand shown; matrix: in vitro; tested at: not given; relative to: not given; reading: higher = stronger binding
Target: Histone acetyltransferase KAT6A, winged helix 1, GST fusion (KAT6A, Homo sapiens, UniProt Q92794, residues 1-85)
Setting: 8-mer, flanks averaged, mean of 2 arrays, mostly near background
Target sequence (chain): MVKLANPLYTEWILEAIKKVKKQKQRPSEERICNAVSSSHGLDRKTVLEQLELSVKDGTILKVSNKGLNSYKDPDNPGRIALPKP
Oligonucleotide	E-score
CACCTTAG	-0.165
ATTCGCAG	-0.00851
CTGCTGGA	-0.19
TCGAGAGA	-0.121
ACGCGACT	0.0652
ATTTGCCC	0.0886
CGATCCAA	-0.0662
CTGATAAA	-0.181
GCTTCGAA	-0.0451
CTTGGCGA	-0.0201
CAATGACC	-0.0874
ACATTTCG	-0.0987
AGTATTAC	0.022
AAGCTAAA	-0.126
ATTAATCC	-0.0748
CAGGGACC	-0.0919

Sample 5 — target: CCNB1, cyclin fold, Cln2 fusion (human); method: yeast growth competition, sequencing; matrix: yeast; setting: weak parent motif; relative to: not given; reading: higher = stronger binding
Starting sequence: RB1 docking peptide (human); PKPLKKLRFDIEG
Change	normalised enrichment score
D10T	-0.284
L7W	0.548
G13Q	1.81
K6R	-0.031
G13I	0.662
P3S	1.44
P1W	0.744
R8V	0.736
K2R	1.14
F9N	0.734
L4S	0.456
L4R	0.557
L7S	1.08
E12M	0.644
P3I	0.618
L4G	0.435
E12N	0.408
P1F	0.65
K2C	0.555
E12S	-0.0312
F9T	0.285
G13Y	-0.445
G13S	1.06
F9S	0.317
P3D	1.19

Sample 6 — method: DHFR PCA, dose-response; matrix: yeast; with: (+)-ABA, dose series; reading: lower = more sensitive
Target: ABI1, truncated, D143A, DHFR fusion (Arabidopsis thaliana, UniProt P49597)
Setting: Hill fit, not affinity, not high confidence
Starting sequence: PYL1, truncated, DHFR fusion (Arabidopsis thaliana, UniProt Q8VZS8); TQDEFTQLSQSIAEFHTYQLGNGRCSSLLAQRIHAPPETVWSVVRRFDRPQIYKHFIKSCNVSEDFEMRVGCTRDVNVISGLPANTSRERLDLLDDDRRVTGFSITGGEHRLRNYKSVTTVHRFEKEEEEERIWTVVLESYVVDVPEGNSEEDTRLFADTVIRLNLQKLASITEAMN
Change	ABA EC50 [µM]
T106I	0.0366
H16F	771
R45W	30.9
N165M	0.405
S117N	16.8
H110C	413
E89G	209
R163P	4.33
I33R	84.5
H110S	273
R74C	0.193

Mixed results
Molecule	target	assay	test system	setting	how to read	measurement	result
PhoQ, residues 284 288 289 292 302 303 QWQEDG	PhoP, residues 12 14 15 18 19 AQALL (Escherichia coli, UniProt P23836)	Sort-seq, refers to: YFP reporter	E. coli	PhoQ-PhoP variant library, with: 10 µM Mg2+	relative to: high Mg2+ state, higher = stronger signaling	fold induction	0.832

Excerpt of the above (sample 5):
Change	normalised enrichment score
R8V	0.736
P1F	0.65
P1W	0.744
F9S	0.317
D10T	-0.284
G13Q	1.81
E12S	-0.0312
